Experimental data from different studies.
Each numbered part is a random draw from the data of one study; scales do not carry over between parts.
UniProt Q8N5S9, sequence (whole entry, looked up): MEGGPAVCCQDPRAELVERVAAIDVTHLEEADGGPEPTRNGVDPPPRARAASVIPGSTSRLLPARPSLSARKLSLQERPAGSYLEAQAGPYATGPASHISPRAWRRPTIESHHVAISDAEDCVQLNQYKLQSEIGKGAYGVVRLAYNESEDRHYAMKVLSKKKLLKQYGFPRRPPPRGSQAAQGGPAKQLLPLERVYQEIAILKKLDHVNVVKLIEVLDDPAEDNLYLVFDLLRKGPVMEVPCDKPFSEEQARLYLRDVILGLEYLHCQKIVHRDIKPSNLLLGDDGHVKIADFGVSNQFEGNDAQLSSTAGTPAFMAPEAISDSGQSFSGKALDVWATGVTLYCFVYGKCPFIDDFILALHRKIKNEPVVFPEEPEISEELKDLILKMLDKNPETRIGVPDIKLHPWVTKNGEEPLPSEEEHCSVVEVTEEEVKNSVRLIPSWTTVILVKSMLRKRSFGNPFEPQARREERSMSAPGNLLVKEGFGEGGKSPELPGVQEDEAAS
UniProt P51812, sequence (whole entry, looked up): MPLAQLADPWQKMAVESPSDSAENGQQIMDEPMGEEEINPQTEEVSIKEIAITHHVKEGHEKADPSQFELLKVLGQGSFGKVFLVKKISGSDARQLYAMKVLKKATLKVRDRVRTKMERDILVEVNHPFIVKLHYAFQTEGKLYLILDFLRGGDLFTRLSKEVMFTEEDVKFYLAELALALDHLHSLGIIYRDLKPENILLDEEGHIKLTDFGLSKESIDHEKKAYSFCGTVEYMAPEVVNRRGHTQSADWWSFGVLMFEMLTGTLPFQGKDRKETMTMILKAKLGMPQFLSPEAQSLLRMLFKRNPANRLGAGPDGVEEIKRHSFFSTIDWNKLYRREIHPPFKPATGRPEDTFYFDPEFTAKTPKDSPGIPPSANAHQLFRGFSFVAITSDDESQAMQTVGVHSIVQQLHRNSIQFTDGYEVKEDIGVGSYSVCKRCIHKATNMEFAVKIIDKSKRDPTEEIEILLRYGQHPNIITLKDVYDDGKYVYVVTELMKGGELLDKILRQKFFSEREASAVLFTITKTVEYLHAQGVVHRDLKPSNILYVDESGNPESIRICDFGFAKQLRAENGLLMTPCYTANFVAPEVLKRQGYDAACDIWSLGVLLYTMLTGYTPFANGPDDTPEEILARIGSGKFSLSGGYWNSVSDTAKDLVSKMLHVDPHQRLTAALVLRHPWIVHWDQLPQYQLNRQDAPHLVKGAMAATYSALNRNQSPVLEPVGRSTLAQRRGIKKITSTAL
UniProt P23458, sequence (whole entry, looked up): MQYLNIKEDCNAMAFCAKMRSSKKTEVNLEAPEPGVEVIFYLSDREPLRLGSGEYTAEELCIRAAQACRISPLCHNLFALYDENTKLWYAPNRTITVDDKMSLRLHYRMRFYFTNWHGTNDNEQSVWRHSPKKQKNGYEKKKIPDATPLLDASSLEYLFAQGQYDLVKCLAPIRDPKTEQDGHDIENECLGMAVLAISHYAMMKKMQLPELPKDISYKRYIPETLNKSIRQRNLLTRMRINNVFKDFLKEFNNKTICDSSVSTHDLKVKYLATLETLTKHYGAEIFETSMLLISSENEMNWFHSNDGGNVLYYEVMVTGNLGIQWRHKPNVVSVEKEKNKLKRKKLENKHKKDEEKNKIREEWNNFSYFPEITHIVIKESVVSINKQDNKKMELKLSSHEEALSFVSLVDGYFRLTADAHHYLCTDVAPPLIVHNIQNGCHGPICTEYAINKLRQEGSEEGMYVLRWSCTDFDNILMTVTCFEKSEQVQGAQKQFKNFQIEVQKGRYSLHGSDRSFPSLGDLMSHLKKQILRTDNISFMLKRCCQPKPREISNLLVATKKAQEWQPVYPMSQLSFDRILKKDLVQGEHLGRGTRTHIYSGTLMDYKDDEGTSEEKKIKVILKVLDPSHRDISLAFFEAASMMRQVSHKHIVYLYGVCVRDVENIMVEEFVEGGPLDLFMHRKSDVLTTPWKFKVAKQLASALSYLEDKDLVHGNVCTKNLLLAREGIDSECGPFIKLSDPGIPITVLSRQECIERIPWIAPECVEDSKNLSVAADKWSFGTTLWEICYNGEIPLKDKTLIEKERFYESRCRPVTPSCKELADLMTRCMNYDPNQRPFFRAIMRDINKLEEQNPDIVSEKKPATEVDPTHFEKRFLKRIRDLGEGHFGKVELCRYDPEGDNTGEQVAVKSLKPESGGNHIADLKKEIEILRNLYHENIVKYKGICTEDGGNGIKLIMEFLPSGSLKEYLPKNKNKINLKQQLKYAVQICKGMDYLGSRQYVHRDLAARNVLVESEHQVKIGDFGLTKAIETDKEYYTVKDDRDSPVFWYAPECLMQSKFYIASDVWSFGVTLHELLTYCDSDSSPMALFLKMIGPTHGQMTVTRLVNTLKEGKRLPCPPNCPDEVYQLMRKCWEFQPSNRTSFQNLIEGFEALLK
UniProt Q9UF33, sequence (whole entry, looked up): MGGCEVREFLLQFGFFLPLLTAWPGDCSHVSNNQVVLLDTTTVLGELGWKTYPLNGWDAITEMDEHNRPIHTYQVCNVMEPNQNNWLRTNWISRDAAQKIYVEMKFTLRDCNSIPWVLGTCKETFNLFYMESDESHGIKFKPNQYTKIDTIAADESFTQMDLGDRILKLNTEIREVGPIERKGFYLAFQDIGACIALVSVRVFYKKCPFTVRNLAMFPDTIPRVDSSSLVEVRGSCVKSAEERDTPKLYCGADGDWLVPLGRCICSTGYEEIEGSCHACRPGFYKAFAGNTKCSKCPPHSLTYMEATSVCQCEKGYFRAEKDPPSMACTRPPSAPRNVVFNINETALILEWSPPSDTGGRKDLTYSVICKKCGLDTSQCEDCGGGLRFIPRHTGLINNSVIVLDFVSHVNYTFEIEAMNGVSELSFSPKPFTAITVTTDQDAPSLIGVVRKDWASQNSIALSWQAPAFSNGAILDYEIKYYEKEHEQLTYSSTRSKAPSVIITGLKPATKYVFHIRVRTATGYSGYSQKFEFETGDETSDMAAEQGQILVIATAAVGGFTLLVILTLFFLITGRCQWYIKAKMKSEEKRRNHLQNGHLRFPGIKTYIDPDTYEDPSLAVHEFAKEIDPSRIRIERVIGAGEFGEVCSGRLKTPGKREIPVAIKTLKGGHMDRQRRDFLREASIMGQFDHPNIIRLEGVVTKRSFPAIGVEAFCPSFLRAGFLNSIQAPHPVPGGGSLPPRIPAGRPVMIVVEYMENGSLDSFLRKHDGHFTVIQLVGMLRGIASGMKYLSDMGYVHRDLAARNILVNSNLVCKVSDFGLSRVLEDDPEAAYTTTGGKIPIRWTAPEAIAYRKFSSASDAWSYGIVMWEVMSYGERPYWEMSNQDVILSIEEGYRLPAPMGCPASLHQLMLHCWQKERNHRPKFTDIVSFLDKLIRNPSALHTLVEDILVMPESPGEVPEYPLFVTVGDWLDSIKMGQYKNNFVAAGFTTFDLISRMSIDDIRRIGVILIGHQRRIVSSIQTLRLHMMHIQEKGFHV
UniProt Q9HBY8, sequence (whole entry, looked up): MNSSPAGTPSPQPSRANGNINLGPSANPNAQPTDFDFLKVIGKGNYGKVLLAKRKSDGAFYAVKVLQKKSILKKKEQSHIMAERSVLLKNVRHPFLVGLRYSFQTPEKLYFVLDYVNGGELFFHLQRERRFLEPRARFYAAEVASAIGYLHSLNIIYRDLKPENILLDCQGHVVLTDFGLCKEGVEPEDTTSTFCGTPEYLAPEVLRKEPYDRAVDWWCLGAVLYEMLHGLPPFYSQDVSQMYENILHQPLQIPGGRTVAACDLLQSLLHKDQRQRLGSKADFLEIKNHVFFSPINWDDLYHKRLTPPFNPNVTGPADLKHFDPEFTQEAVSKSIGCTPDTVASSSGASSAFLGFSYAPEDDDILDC
UniProt P06239, sequence (whole entry, looked up): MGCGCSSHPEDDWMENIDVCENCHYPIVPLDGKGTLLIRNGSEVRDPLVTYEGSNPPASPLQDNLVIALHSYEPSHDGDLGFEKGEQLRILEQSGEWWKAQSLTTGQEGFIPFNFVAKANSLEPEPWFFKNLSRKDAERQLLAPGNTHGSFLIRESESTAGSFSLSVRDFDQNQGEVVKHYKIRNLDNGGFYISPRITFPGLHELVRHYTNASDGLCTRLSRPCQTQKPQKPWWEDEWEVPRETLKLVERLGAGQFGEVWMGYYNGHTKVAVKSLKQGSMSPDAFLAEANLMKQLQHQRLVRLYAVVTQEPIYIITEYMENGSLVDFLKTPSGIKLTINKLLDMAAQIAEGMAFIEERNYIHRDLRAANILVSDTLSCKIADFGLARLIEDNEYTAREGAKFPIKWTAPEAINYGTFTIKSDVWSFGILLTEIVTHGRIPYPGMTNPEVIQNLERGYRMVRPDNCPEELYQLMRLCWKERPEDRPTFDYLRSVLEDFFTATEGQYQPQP
UniProt P07947, sequence (whole entry, looked up): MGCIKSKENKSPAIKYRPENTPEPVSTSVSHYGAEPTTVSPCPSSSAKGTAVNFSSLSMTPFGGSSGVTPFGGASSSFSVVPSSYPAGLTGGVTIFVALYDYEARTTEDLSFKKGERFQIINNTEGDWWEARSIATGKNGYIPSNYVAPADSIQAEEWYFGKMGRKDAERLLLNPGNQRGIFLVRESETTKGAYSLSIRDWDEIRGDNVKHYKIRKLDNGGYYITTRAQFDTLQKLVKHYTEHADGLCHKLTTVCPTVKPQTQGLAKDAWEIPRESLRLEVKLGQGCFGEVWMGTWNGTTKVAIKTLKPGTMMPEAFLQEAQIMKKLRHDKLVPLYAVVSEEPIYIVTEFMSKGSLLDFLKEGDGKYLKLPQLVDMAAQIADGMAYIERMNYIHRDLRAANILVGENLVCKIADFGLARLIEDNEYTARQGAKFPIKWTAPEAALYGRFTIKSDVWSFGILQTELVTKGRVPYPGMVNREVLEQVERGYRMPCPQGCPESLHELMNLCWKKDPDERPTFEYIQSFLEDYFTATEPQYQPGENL

Block 1 — technique: RNA Bind-n-Seq; form: RNA; matrix: in vitro; tested at: 365 nM; relative to: no-protein control; reading: higher = stronger binding
Target: RNA binding protein fox-1 homolog 2, RRM domain, GST-SBP tag (RBFOX2, Homo sapiens, UniProt O43251-10, residues 100-194)
Notes: natural RNA segment, single round, ends assumed
Target sequence (chain): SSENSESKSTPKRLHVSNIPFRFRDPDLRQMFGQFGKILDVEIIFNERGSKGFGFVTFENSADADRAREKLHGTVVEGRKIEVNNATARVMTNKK
Sequence	RBNS enrichment (R)
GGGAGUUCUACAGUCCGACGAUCCACUCUGUCCUUUCCUCACCAACUAACAUGUGCCAGCCAGGCAGAGUCUUGUGCUGUUCCCAGAACAGGACGACAGUGAAAAGAACACUCUUGACCCUACACUGAAGGCUUGGAAUUCUCGGGUGCCAA	0.344
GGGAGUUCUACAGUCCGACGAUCGUCCCAAGGUGAGCUCCGUGGACAGCAAAGCGCAUUUCUUCCAGUUGGCAUGUUGUCGAAGCCAAUGGCAGCUUGACUGAUGUGAGGUGGCUAUUCCACCUGGUUCAAGAUGGAAUUCUCGGGUGCCAA	0.896
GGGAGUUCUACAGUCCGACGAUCUAAUGGUUGAACCAUCUUUUCAGCCCAAACAGUUUAUUUCUAAAAAGUAGAUUUAAUGCUAGGGGCCAUUAUGCAGGCUUGUAAUCCUAGAUGUUGGGAUGCCGGGGCAGUGGAAUUCUCGGGUGCCAA	0.516
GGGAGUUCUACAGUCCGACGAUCGGACUCUGAACUCAGAGCAGUCACACUUCCUUGGUUUUUUUAGGUUAGACAUUAACAAACAGCAGGAAAAUGUCACAUAACCUGGAAAGACCGCACUGGAGUUGGGUGUGUGGAAUUCUCGGGUGCCAA	0.443
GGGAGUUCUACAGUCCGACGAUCGAGCCUCCAAGCUGAUCAAGCAAUUCUUUCCUGUAAUCUGAUAGGAGGCAGCAAGCAAGGACAUCCUCCAGUGGUUUCCUGGAGCCACCGGCUCACUGUCUGCAGCACCUUGGAAUUCUCGGGUGCCAA	0.266
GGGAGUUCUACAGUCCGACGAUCCUCCCUCUCAGGAAGCCCAGUUUCAUCCUUAGUACCCCCCCUCGUGCCCGCUGUCGGCUGGUUAUAGCACUUCCACUGCUACUGUCAGAUAGGAAGUGAUCGAAGCAGGGUGGAAUUCUCGGGUGCCAA	0.339
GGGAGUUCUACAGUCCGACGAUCGCGAGUCAGAACCAGCAUGGAGUGUUUCUGCUGAUUUCUGUCCCUGCAUCUCCCCUGGCCCCGUUCCCUGCCCUCCUCCCUUCCCUGGGUGACUGCUCUGAGAGGCACUUUGGAAUUCUCGGGUGCCAA	2.14
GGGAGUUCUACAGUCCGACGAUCGAGGUGGACCCCGAAACGGACGGCCCGGAGCCCGCACCAGCCCCGCGCCUACCCGGGCCGCCCCCGCGGCCUGGCCCUCGGCGCGGGCUCCUUCCCGCUUCCCCCGACUUUGGAAUUCUCGGGUGCCAA	0.349

Block 2 — host: human; matrix: microsomes or S9; tested at: 2 µM; time: 0.5 h
SMILES	remaining compound [%]
COc1cccc([C@@H]2CN(C(=O)C3CC(=O)Nc4ccccc43)C[C@]23CCCCC(=O)N3)c1 (some centres unmarked)	56
Cc1ccc(CSC2=NS(=O)(=O)c3ccccc32)cc1	0
Cc1ccc(N2CCCS2(=O)=O)cc1NS(=O)(=O)CC12CCC(CC1=O)C2(C)C (centres unmarked)	35.4
COc1cc(Nc2ncc(-c3cnn(C)c3)c(Nc3ccc4c(c3)CNCC4)n2)cc(OC)c1	82.8
Cc1nc2nc(CCc3ccccc3)nn2c(C)c1Cl	36.4
O=C1CC(c2ccc3c(c2)OCO3)CC2=C1C(c1ccncc1)Nc1ccccc1N2 (centres unmarked)	65.1
Cc1nc(C(C)C)sc1C(C)NCC1CCCS1(=O)=O (centres unmarked)	79

Block 3 — tested at: 1 µM
SMILES: CCC(=O)N[C@@H]1CC[C@H](C(=O)N(C)c2ccc(-c3nc4ccccc4o3)cc2)C1
target	observed	technique	remaining binding [%]
Tyrosine-protein kinase Lck (LCK, Homo sapiens, UniProt P06239)	cell-free assay	competition with immobilised ligand	100
Cyclin-dependent kinase 19 (CDK19, Homo sapiens, UniProt Q9BWU1)		competition binding	82
ALK tyrosine kinase receptor (ALK, Homo sapiens, UniProt Q9UM73, C1156Y)	cell-free assay	competition with immobilised ligand	100
Serine/threonine-protein kinase Nek6 (NEK6, Homo sapiens, UniProt Q9HC98)	cell-free assay	competition with immobilised ligand	99
Bone morphogenetic protein receptor type-1B (BMPR1B, Homo sapiens, UniProt O00238)	cell-free assay	competition with immobilised ligand	100

Block 4 — observed: enzyme activity; action: inhibitor; tested at: 0.5 µM; relative to: control
Structure (SMILES): CS(=O)(=O)CCNCc1ccc(-c2ccc3ncnc(Nc4ccc(OCc5cccc(F)c5)c(Cl)c4)c3c2)o1
target	remaining activity
Calcium/calmodulin-dependent protein kinase kinase 1 (CAMKK1, Homo sapiens, UniProt Q8N5S9)	98.8%
Serine/threonine-protein kinase SIK2 (SIK2, Homo sapiens, UniProt Q9H0K1)	101%
Muscle, skeletal receptor tyrosine-protein kinase (MUSK, Homo sapiens, UniProt O15146)	96.5%
Ephrin type-A receptor 6 (EPHA6, Homo sapiens, UniProt Q9UF33)	115%
Tyrosine-protein kinase Tec (TEC, Homo sapiens, UniProt P42680)	101%
Tyrosine-protein kinase JAK1 (JAK1, Homo sapiens, UniProt P23458)	98%
Tyrosine-protein kinase JAK2 (JAK2, Homo sapiens, UniProt O60674)	101%
Vascular endothelial growth factor receptor 1 (FLT1, Homo sapiens, UniProt P17948)	100%
Ribosomal protein S6 kinase alpha-3 (RPS6KA3, Homo sapiens, UniProt P51812)	105%
Insulin-like growth factor 1 receptor (IGF1R, Homo sapiens, UniProt P08069)	87.4%
Serine/threonine-protein kinase PAK 1 (PAK1, Homo sapiens, UniProt Q13153)	110%
Tyrosine-protein kinase Yes (YES1, Homo sapiens, UniProt P07947)	84.7%
Tyrosine-protein kinase receptor TYRO3 (TYRO3, Homo sapiens, UniProt Q06418)	98.9%
Serine/threonine-protein kinase Sgk2 (SGK2, Homo sapiens, UniProt Q9HBY8)	106%

Single results of other studies
SMILES	matrix	measurement	value
CCOC(=O)[C@@H]1CSCC(=O)N[C@H](CC)C(=O)N(C)[C@@H](C)C(=O)N[C@@H](CC(C)C)C(=O)N2CCC[C@H]2C(=O)N(CC(C)C)CC(=O)N[C@@H](CC(C)C)C(=O)N(C)[C@H](C)C(=O)N[C@@H](CC(C)C)C(=O)N1C	hydrocarbon/water	logD	0.724

Repeated from above (block 4):
target	remaining activity
Serine/threonine-protein kinase PAK 1 (PAK1, Homo sapiens, UniProt Q13153)	110%
Tyrosine-protein kinase JAK2 (JAK2, Homo sapiens, UniProt O60674)	101%
Calcium/calmodulin-dependent protein kinase kinase 1 (CAMKK1, Homo sapiens, UniProt Q8N5S9)	98.8%
Serine/threonine-protein kinase Sgk2 (SGK2, Homo sapiens, UniProt Q9HBY8)	106%
Ephrin type-A receptor 6 (EPHA6, Homo sapiens, UniProt Q9UF33)	115%
